Experimental data of several laboratories.
Compare with care: the assays were run in different laboratories. ± gives the spread as reported.

The half-life of COC(=O)[C@H](N)CSN=O is reported as 406 ± 30.3 min (PBS; 10 µM, pH 7.72, room temperature, dark).
The half-life of N#Cc1cccc(-c2ccc3ncc(-c4cc(F)cc(F)c4)c(N4CCC(N)CC4)c3c2)c1O is reported as 1860 min (healthy male, plasma total radioactivity; oral, 20 mg, geometric mean).
CCCCC[C@H](O)CC[C@@H]1[C@H]2Cc3cccc(OCC(=O)O)c3C[C@H]2C[C@H]1O gave a half-life of 40.2 min (LC-MS/MS; Japanese PAH patients, plasma; inhaled, 54 µg, body weight ≥56.7 kg, geometric mean).
With COc1ccc(-n2nc(C(=O)NC(=O)OCc3cc(C(=O)O)ccc3OP(=O)(O)O)c3c2C(=O)N(c2ccc(N4CCCCC4=O)cc2)CC3)cc1 the half-life was over 120 min (simulated gastric fluid; 10 µM, 2 h incubation, pH 1.2).
The half-life of CC(=O)O[C@@]12CO[C@@H]1C[C@H](O)[C@@]1(C)C(=O)[C@H](O)C3=C(C)[C@@H](OC(=O)[C@H](O)[C@@H](NC(=O)OC(C)(C)C)c4ccccc4)C[C@@](O)([C@@H](OC(=O)c4ccccc4)[C@H]21)C3(C)C is reported as 900 min (patients, plasma; intravenous, 75 mg/m^2, without co-administered drug).
O=C(Oc1coc(CSc2ncccn2)cc1=O)c1ccc([N+](=O)[O-])cc1 gave a half-life of 2.1 min (mouse plasma; 37 °C).
CCCCCCCCCC(=O)N[C@@H](Cc1c[nH]c2ccccc12)C(=O)N[C@H](CC(N)=O)C(=O)N[C@@H](CC(=O)O)C(=O)N[C@@H]1C(=O)NCC(=O)N[C@@H](CCCN)C(=O)N[C@@H](CC(=O)O)C(=O)N[C@H](C)C(=O)N[C@@H](CC(=O)O)C(=O)NCC(=O)N[C@H](CO)C(=O)N[C@@H]([C@H](C)CC(=O)O)C(=O)N[C@@H](CC(=O)c2ccccc2N)C(=O)O[C@@H]1C has a half-life of over 240 min (mouse plasma; 1 µM, up to 240 min, pH 7.4, 37 °C).
Cc1c(C(=O)O)ccc2c3n(nc12)[C@@H]1[C@H](C3)N(CC2CC2)[C@@]2(C(=O)Nc3cc(Cl)ccc32)[C@H]1c1cccc(Cl)c1F has a half-life of 2520 min (cancer patients; oral, 45 mg every 3 weeks).
N[C@@H](CC(=O)N1CCc2c(nc(C(F)(F)F)nc2C(F)(F)F)C1)CN1CC(F)(F)CCC1=O gave a half-life of 1120 ± 152 min (healthy Korean adults, fasted, plasma; oral, 50 mg single dose, fixed-dose combination tablet, together with: enavogliflozin 0.3 mg).
The half-life of CC1(C)NC(=O)N(c2ccc([N+](=O)[O-])c(C(F)(F)F)c2)C1=O is reported as 62.9 min (substrate depletion; phenobarbital/β-naphthoflavone-induced rat liver microsomes; 1 µM, pH 7.4, 37 °C, together with: NADPH).
C[C@H]1[C@H]2N(C(=O)CN(C)N2C(=O)NCc2ccccc2)[C@@H](Cc2ccc(OP(=O)(O)O)cc2)C(=O)N1Cc1cccc2cccnc12 gave a half-life of 30 min (patients, plasma; intravenous infusion, 280 mg/m2 over 4 h, mean).
For CC(C)C[C@H](NC(=O)[C@@H](N)[C@@H](C)O)C(=O)N[C@@H](CCC(N)=O)C(=O)N1CCC[C@H]1C(=O)N1CCC[C@H]1C(=O)N[C@@H](C)C(=O)N[C@@H](CO)C(=O)N[C@@H](CO)C(=O)N[C@@H](CCCNC(=N)N)C(=O)N[C@@H](CCCNC(=N)N)C(=O)N[C@@H](CCCNC(=N)N)C(=O)N[C@@H](Cc1c[nH]cn1)C(=O)N[C@@H](Cc1ccccc1)C(=O)N[C@@H](Cc1c[nH]cn1)C(=O)N[C@@H](Cc1c[nH]cn1)C(=O)N[C@@H](C)C(=O)N[C@@H](CC(C)C)C(=O)N1CCC[C@H]1C(=O)N1CCC[C@H]1C(=O)N[C@@H](C)C(=O)N[C@@H](CCCNC(=N)N)C(=O)O, the half-life was under 10 min (LC-MS; mouse plasma 100%; 37 °C).
With O=c1c2ccccc2sn1Cc1ccc(Cl)cc1 the half-life was under 60 min (mouse liver microsomes; together with: NADPH).
With C[C@H]1CN(C(=O)CC#N)[C@]12CCN(c1ncnc3[nH]ccc13)C2 the half-life was 162 min (healthy Japanese males, plasma; oral, 5 mg single dose).
Brc1cncs1 gave a half-life of 1970 min (PBS with 5% acetonitrile; 250 µM, pH 7.4, no glutathione).
With Cc1ccc2[nH]c(=S)n(Cc3cccnc3)c(=O)c2c1 the half-life was over 373 min (plasma stability; mouse plasma).
O=C(O)c1cc(O)c(O)c(O)c1 gave a half-life of 166 ± 105 min (LC-MS/MS; male Ross broilers, serum; oral, 0.49 mg/kg BW).
CC(=O)O[C@H]1C(=O)[C@@]2(C)[C@H]([C@H](OC(=O)c3ccccc3)[C@]3(O)C[C@H](OC(=O)[C@H](OC(=O)OCc4cc(P(=O)(O)O)ccc4OP(=O)(O)O)[C@@H](NC(=O)c4ccccc4)c4ccccc4)C(C)=C1C3(C)C)[C@]1(OC(C)=O)CO[C@@H]1C[C@@H]2O gave a half-life of over 120 min (simulated gastric fluid; 10 µM, 2 h incubation, pH 1.2).
COc1ccc([C@@H](O)c2cc(-c3ncnc4cc(N5CCOCC5)ccc34)c(F)cc2Cl)nn1 gave a half-life of 227 min (geometric mean; healthy volunteers, plasma; oral, 100 mg, fasted oral suspension).
NC(=O)CC[C@@H]1NC(=O)[C@H](Cc2ccccc2)NC(=O)[C@H](Cc2ccc(O)cc2)NC(=O)CCSSC[C@@H](C(=O)N2CCC[C@H]2C(=O)N[C@H](CCCN=C(N)N)C(=O)NCC(N)=O)NC(=O)[C@H](CC(N)=O)NC1=O has a half-life of 108 min (mild haemophilia A patients and carriers, plasma; intravenous infusion over 30 min, 0.3 µg/kg, mean, noncompartmental).
With C=CC(=O)NC1CCN(c2ncc3ncnc(Nc4ccc(Oc5ccc6c(c5)ncn6C)c(C)c4)c3n2)CC1 the half-life was 2320 min (healthy men; oral, 60 mg single dose).
For NC(=O)Nc1ccc(OC(F)F)cc1, the half-life was at least 14400 min (PBS with 10% acetonitrile; 250 µM, pH 7.4, together with: GSH 5 mM).
FC(F)=Cc1cc(C(F)(F)F)cc(C(F)(F)F)c1 gave a half-life of 78 min (reactivity with N-α-acetyl-lysine, HPLC-MS; BBS buffer with acetonitrile; 1 mM, pH 10.2).
With O=C1CC2(CCCC2)CC(=O)N1CCCCN1CCN(c2ncccn2)CC1 the half-life was 7.2 ± 2.3 min (induced rat liver microsomes; 1 µM, pH 7.4).
CCOC(=O)C1=C(CN2CCC[C@@H]2C(=O)Nc2ccc(B(O)O)cc2)NC(c2nccs2)=N[C@H]1c1ccc(F)cc1Br has a half-life of 169 min (human liver microsomes; 1 µM, pH 7.4).
Cn1c(=O)n(C2CCC(=O)NC2=O)c2cccc(C#CCOC3CCN(C[C@H]4CC[C@H](n5cc(NC(=O)c6cnn7ccc(N8C[C@H]9C[C@@H]8CO9)nc67)c(C(F)F)n5)CC4)CC3)c21 (stereo partly drawn) has a half-life of 138 min (H/D exchange; 0.5 µM, pH 7.8, mean of replicates).
For CCCCCCCCCCCCCCCC(=O)N[C@@H](CCC(=O)NCCCC[C@@H]1NC(=O)[C@H]([C@@H](C)CC)NC(=O)[C@@H](NC(=O)[C@@H]2CCCN2C(=O)[C@H](Cc2ccccc2)NC(=O)[C@H](Cc2c[nH]cn2)NC(=O)[C@@H](NC(=O)[C@H](CC(=O)O)NC(=O)CC(C)C)[C@@H](C)O)CSSC[C@@H](C(=O)N[C@@H](CCCCN)C(N)=O)NC(=O)CNC(=O)[C@H](CCCCN)NC(=O)[C@H](CO)NC(=O)[C@H](CCCNC(=N)N)NC(=O)[C@@H]2CCCN2C(=O)[C@H](CCC(=O)O)NC(=O)[C@H](Cc2ccccc2)NC1=O)C(=O)O, the half-life was 3430 ± 4380 min (healthy volunteers, plasma; subcutaneous, 60 mg single, lyophilised formulation).
CCCCCCNC(=O)n1cc(C(F)(F)F)c(=O)[nH]c1=O has a half-life of 1 min (mouse plasma; 0.1 mM, 37 °C).
For OCc1ccc(-c2nn(Cc3ccccc3)c3ccccc23)o1, the half-life was under 5 min (mouse liver microsomes; together with: NADPH and UDPGA).
With CC1=NN(/C(=N/c2nnc(C)s2)Nc2ccc(C)c(C)c2)C(c2cc(F)c(F)c(F)c2)S1 (stereo not drawn) the half-life was 28.3 min (plasma stability; rat plasma).
The half-life of Cc1ccc(OCCN)cc1C(=O)N[C@H](C)c1cccc(-c2ccc(O)cc2)c1 is reported as over 50 min (mouse liver microsomes; 1 µM).
C[C@H](NC(=O)/C(C#N)=C/c1cccc(Br)n1)c1ccccc1 gave a half-life of 72 min (LC-MS/MS; patients, plasma; oral, 1 mg/kg, cycle 1 day 8).
For CCCCCN(C)CCC(O)(P(=O)(O)O)P(=O)(O)OP(=O)(O)OC[C@H]1O[C@@H](n2ccc(N)nc2=O)C(F)(F)[C@@H]1O (stereo partly drawn), the half-life was 456 min (hydrolysis; HEPES buffer; pH 8.2, 37 °C).

A few entries again:
With COc1ccc(-n2nc(C(=O)NC(=O)OCc3cc(C(=O)O)ccc3OP(=O)(O)O)c3c2C(=O)N(c2ccc(N4CCCCC4=O)cc2)CC3)cc1 the half-life was over 120 min (simulated gastric fluid; 10 µM, 2 h incubation, pH 1.2).
N[C@@H](CC(=O)N1CCc2c(nc(C(F)(F)F)nc2C(F)(F)F)C1)CN1CC(F)(F)CCC1=O gave a half-life of 1120 ± 152 min (healthy Korean adults, fasted, plasma; oral, 50 mg single dose, fixed-dose combination tablet, together with: enavogliflozin 0.3 mg).
With CC1=NN(/C(=N/c2nnc(C)s2)Nc2ccc(C)c(C)c2)C(c2cc(F)c(F)c(F)c2)S1 (stereo not drawn) the half-life was 28.3 min (plasma stability; rat plasma).
Brc1cncs1 gave a half-life of 1970 min (PBS with 5% acetonitrile; 250 µM, pH 7.4, no glutathione).
FC(F)=Cc1cc(C(F)(F)F)cc(C(F)(F)F)c1 gave a half-life of 78 min (reactivity with N-α-acetyl-lysine, HPLC-MS; BBS buffer with acetonitrile; 1 mM, pH 10.2).
